Measured values gathered from unrelated publications.
Compare with care: the assays were run in different laboratories. ± gives the spread as reported.

`Cc1c(-c2c3c(N)n[nH]c(=O)c3nn2-c2ccc(NC(=O)/C=C/CN(C)C)cc2)oc2cc(F)ccc12` gave a remaining compound of 61.7% (BALB/c nude mouse whole blood; 1 µM, 1 h, 37 °C).
For `C/C(=N\OCCN(C)Cc1ccccc1)c1ccc(C(F)(F)F)cc1`, remaining compound read “not detected” (mouse liver microsomes; 30 min, not detected).
With `Cc1ccc(C(C)C)cc1.O=C(N=P12CN3CN(CN(C3)C1)C2)c1[c-]cccc1.[Cl-].[Ru+2]` the remaining compound was 85% (DMSO-d6; 1 day).
With `[2H]C1([2H])CC[C@@H](C[C@@H](C#N)NC(=O)[C@@H]2[C@@H]3[C@H](CN2C(=O)[C@@H](NC(=O)C(F)(F)F)C(C)(C)C)C3(C)C)C(=O)N1` the remaining compound was 31.1% (human liver microsomes; 60 min, together with: NADPH).
`COc1ccc2c(c1)C(=O)C(=C[O-])C2.[Na+]` has a remaining compound of 100% (HPLC-MS; HEPES buffer; 1 h, pH 7.4).
`C=CC(=O)Nc1ccc(-n2nc3c(=O)[nH]nc(N)c3c2-c2oc3ccc(Br)cc3c2C)cc1` gave a remaining compound of 61.4% (BALB/c nude mouse whole blood; 1 µM, 2 h, 37 °C).
The remaining compound of `O=C1CC[C@H](N2Cc3cc(-c4ccn5ncc(Cl)c5n4)ccc3C2=O)C(=O)N1` is reported as 96.3% (human liver microsomes; 1 µM, 5 min).
With `CO[C@@H](C[C@H]1C(C)=CC[C@@H]2[C@]3(C)C[C@H](O[C@@H]4O[C@@H](C)[C@H](O)[C@@H](O)[C@H]4O)[C@@H](O)C(C)(C)[C@H]3CC[C@]21C)[C@H](N)C(=O)O` the remaining compound was 99.8% (simulated gastric fluid with pepsin; 1 µM, 60 min, pH 1.2).
`CC(C)(C)[C@H](NC(=O)c1ccc(Oc2ccc(C(=O)N[C@H]3CCCC[C@@H]3O)cc2)cc1)C(=O)NCCN1CCCC1` gave a remaining compound of 70% (mouse liver microsomes; 1 µM, 60 min, pH 7.4, together with: without cofactors).
`C=CC(=O)Nc1cccc(Cn2ncc3cnc(Nc4cnn(CCOC)c4)nc32)c1` gave a remaining compound of 100% (Beagle dog whole blood; 5 µM, 0 min).
`O=S(=O)(Cl)c1cc(C(F)(F)F)cc(C(F)(F)F)c1` gave a remaining compound of 8% (HPLC-MS; HEPES buffer; 1 h, pH 7.4).
`O=C(O)C(Cc1c[nH]c2ccccc12)Nc1ccccc1` (stereo not shown) gave a remaining compound of 66.6% (human liver microsomes; 1.5 µM, 180 min, pH 7.4, mean of replicates; baseline: 0 min).
`[2H]C1([2H])C[C@@H](C[C@@H](C#N)NC(=O)[C@@H]2[C@@H]3[C@H](CN2C(=O)[C@@H](NC(=O)C(F)(F)F)C(C)(C)C)C3(C)C)C(=O)N1` gave a remaining compound of 101% (human liver microsomes; 60 min).
The remaining compound of `O=C(CNC(=O)c1cccc(NC2=NCC(F)(F)CN2)c1)NC[C@H](NC(=O)c1c(Cl)cc(-c2ccccc2)cc1Cl)C(=O)O` is reported as 100% (mouse liver microsomes; 45 min).
`O=C(N1CCCCC1)C12CC(c3ccccc3)(C1)C2(Br)Br` gave a remaining compound of 85% (pooled human liver microsomes; 2 µM, 40 min, without NADPH).
`O=C(NC1CCC(F)(F)CC1)C(c1cncnc1)N(C(=O)C(F)Cl)c1ccc(OC(F)(F)F)cc1` (stereo not shown) has a remaining compound of 95.3% (mouse liver microsomes; concentration not given, 0.5 h, pH 7.4).
`COc1cc(-c2cncc(-c3ccc(N4CCNCC4)cc3)c2C)cc(OC)c1F` gave a remaining compound of 66% (CD-1 mouse liver microsomes male; 1 µM, 1 h, pH 7.4).
`C=CC(=O)Nc1ccc(-n2nc3c(=O)[nH]nc(N)c3c2-c2oc3cc(F)ccc3c2C)cc1` has a remaining compound of 20.9% (BALB/c nude mouse whole blood; 1 µM, 5 h, 37 °C).
The remaining compound of `O=Cc1cc(OCc2ccccc2)ccc1B(O)O` is reported as 97% (HPLC-MS; HEPES buffer; 1 h, pH 7.4).
`CC[C@H](C)[C@H](NC(=O)[C@@H](NC(=O)[C@H](CCC(=O)O)NC(=O)[C@H](C)NC(=O)[C@H](C)NC(=O)[C@H](CCC(=O)O)NC(=O)[C@H](Cc1ccc2ccccc2c1)NC(=O)[C@H](Cc1ccc(OCc2ccccc2[N+](=O)[O-])cc1)NC(=O)[C@@H](NC(=O)[C@@H](NC(=O)[C@H](CCCNC(=N)N)NC(=O)[C@H](C)NC(=O)[C@H](CC(N)=O)NC(=O)[C@H](CCCCN)NC(=O)[C@H](CCCNC(=N)N)NC(=O)[C@H](CCCCN)NC(=O)[C@H](CCCNC(=N)N)NC(=O)[C@H](CCCCN)NC(=O)[C@@H]1CCCN1C(=O)[C@H](CCCNC(=N)N)NC(=O)[C@H](CCCCN)NC(=O)[C@H](CCCNC(=N)N)NC(=O)[C@H](CCCNC(=N)N)NC(C)=O)C(C)C)[C@@H](C)O)[C@@H](C)CC)C(N)=O` has a remaining compound of 99% (HPLC; ambient light; 0 min).
With `C[C@](C(=O)NC1CCC(F)(F)CC1)(c1cncnc1)N(C(=O)[C@H](F)Cl)c1ccc(OC(F)(F)F)cc1` the remaining compound was 61.8% (human liver microsomes; concentration not given, 0.08333 h, pH 7.4).
The remaining compound of `C=C(NC(=O)c1csc(-c2nc3c(cc2O)-c2nc(cs2)C(=O)NC(C(C)O)C(=O)NC(=C(C)OC)c2nc(cs2)C(=O)NC2c4nc(cs4)C(=O)NC(COC(=O)c4c5c6c(cccc6n4O)COC(=O)C(OC4CC(C)(O)C(N(C)C)C(C)O4)C2OC5)c2nc-3cs2)n1)C(N)=O` (stereo not shown) is reported as over 90% (Sprague-Dawley rat liver microsomes; 2 µM, 60 min, together with: NADPH).
With `COc1ccc(CSc2ncccn2)cc1OS(=O)(=O)c1ccc([N+](=O)[O-])cc1` the remaining compound was 100% (mouse plasma; 1 h).
The remaining compound of `[2H]C1([2H])CC[C@@H](C[C@@H](C#N)NC(=O)[C@@H]2[C@@H]3[C@H](CN2C(=O)[C@@H](NC(=O)C(F)F)C(C)(C)C)C3(C)C)C(=O)N1` is reported as 14.7% (mouse liver microsomes; 60 min, together with: NADPH).
For `Cc1ccc(-c2nc(N)c3c(Nc4ccc(F)cc4)n[nH]c3n2)cc1`, the remaining compound was 12% (human liver microsomes; time not given, metabolic stability).
With `CCOC(=O)c1c(C(=O)OC)cn(CC(c2cn(C)c3ccccc23)c2cn(C)c3ccccc23)c1C` the remaining compound was 95.6% (HPLC-ESI-MS; EMEM cell medium; 72 h, 37 °C).
`c1n[nH]c2nnc(N3CCCCC3)cc12` has a remaining compound of 63.2% (LC-MS/MS; mouse liver S9 fraction, 0.25 mg/mL; 3 µM, 30 min, together with: NADPH 1 mM).
The remaining compound of `O=C(NC1CCC(F)(F)CC1)C(c1cncnc1)N(C(=O)C(F)Cl)c1ccc(-c2cncs2)cc1` (stereo not shown) is reported as 58.4% (human liver microsomes; concentration not given, 0.3333 h, pH 7.4).
With `Cc1cc(C)nc(NC(=S)N2CCN(c3ccc(C(F)(F)F)cn3)CC2)c1` the remaining compound was 70.2 ± 0.7% (mouse liver microsomes; 1 µM, 15 min).
`CCN(CC)C(=O)c1ccc(-c2cc(NCCCN3CCCCC3)c3ccccc3n2)cc1` gave a remaining compound of 95.3% (human liver microsomes; 1 h).
`Cc1ccc2oc(-c3c4c(N)n[nH]c(=O)c4nn3-c3ccc(NC(=O)/C=C/CN(C)C)cc3)c(C)c2c1` gave a remaining compound of 92.5% (BALB/c nude mouse whole blood; 1 µM, 0.5 h, 37 °C).
For `O=S(=O)(N[C@H]1CCO[C@@H](C2c3ccc(F)cc3CCc3cc(F)ccc32)C1)c1ccc(OC(F)(F)F)cc1`, the remaining compound was 69% (liver microsomes; 10 µM, 30 min).
With `C=CC(=O)NCc1ccc(-n2nc3c(=O)[nH]nc(N)c3c2-c2oc3ccc(C)cc3c2C)cc1` the remaining compound was 91.3% (BALB/c nude mouse whole blood; 1 µM, 1 h, 37 °C).
`CCCCN1C(=O)c2cccc3c(N4CC[N+](C)(C5OC(C(=O)O)C(O)C(O)C5O)CC4)ccc(c23)C1=O` (stereo not shown) has a remaining compound of 98.3% (human liver microsomes; 51.74 nM, 24 h, 4 °C).
`CN(Cc1cc(C2CC2)on1)C(=O)c1cccc(-c2ccc(F)cc2)c1` gave a remaining compound of 62.4% (human liver microsomes; 2 µM, 120 min, pH 7.5, together with: 1-aminobenzotriazole 500 µM, preincubated 30 min).
`O=Cc1cc(C(F)(F)F)cc(C(F)(F)F)c1` has a remaining compound of 83% (HPLC-MS; HEPES buffer; 1 h, pH 7.4).
`Cc1ccc(OCC(=O)N(Cc2cccs2)c2ccn[nH]2)cc1` has a remaining compound of 0.3 (rat plasma; 750 ng/mL, 24 h, 37 °C, unit not given; baseline: time zero).
For `O=CC1C(=O)Nc2ccccc21` (stereo not shown), the remaining compound was 97% (HPLC-MS; HEPES buffer; 1 h, pH 7.4).
With `COc1cc(-c2cncc(-c3ccc(N4CCNCC4)cc3)c2C)cc(OC)c1OC` the remaining compound was 65% (CD-1 mouse liver microsomes male; 1 µM, 1 h, pH 7.4).
The remaining compound of `O=C=Nc1cc(C(F)(F)F)cc(C(F)(F)F)c1` is reported as 73% (HPLC-MS; HEPES buffer; 1 h, pH 7.4).
`C=CC(=O)Nc1ccc(-n2nc3c(=O)[nH]nc(N)c3c2-c2oc3ccc(C)cc3c2C)cc1` gave a remaining compound of 84.6% (BALB/c nude mouse whole blood; 1 µM, 0.5 h, 37 °C).
`Nc1nc(-c2ccccc2)nc2[nH]nc(Nc3ccccc3)c12` gave a remaining compound of 17% (human liver microsomes; time not given, metabolic stability).
`CCN(CC)c1ccc2cc(C(=O)ON3C(=O)CCC3=O)c(=O)oc2c1` gave a remaining compound of 0% (HEPES buffer; 20 h, pH 7.4).

Some of these lines once more:
The remaining compound of `C=C(NC(=O)c1csc(-c2nc3c(cc2O)-c2nc(cs2)C(=O)NC(C(C)O)C(=O)NC(=C(C)OC)c2nc(cs2)C(=O)NC2c4nc(cs4)C(=O)NC(COC(=O)c4c5c6c(cccc6n4O)COC(=O)C(OC4CC(C)(O)C(N(C)C)C(C)O4)C2OC5)c2nc-3cs2)n1)C(N)=O` (stereo not shown) is reported as over 90% (Sprague-Dawley rat liver microsomes; 2 µM, 60 min, together with: NADPH).
The remaining compound of `O=C1CC[C@H](N2Cc3cc(-c4ccn5ncc(Cl)c5n4)ccc3C2=O)C(=O)N1` is reported as 96.3% (human liver microsomes; 1 µM, 5 min).
With `C[C@](C(=O)NC1CCC(F)(F)CC1)(c1cncnc1)N(C(=O)[C@H](F)Cl)c1ccc(OC(F)(F)F)cc1` the remaining compound was 61.8% (human liver microsomes; concentration not given, 0.08333 h, pH 7.4).
The remaining compound of `O=C=Nc1cc(C(F)(F)F)cc(C(F)(F)F)c1` is reported as 73% (HPLC-MS; HEPES buffer; 1 h, pH 7.4).
`O=C(O)C(Cc1c[nH]c2ccccc12)Nc1ccccc1` (stereo not shown) gave a remaining compound of 66.6% (human liver microsomes; 1.5 µM, 180 min, pH 7.4, mean of replicates; baseline: 0 min).
